Published values gathered from unrelated publications.
Compare with care: the assays were run in different laboratories. Values joined by “and” are separate records of one study, mostly repeats; a detail may differ.
PIK3CD: Phosphatidylinositol 4,5-bisphosphate 3-kinase catalytic subunit delta isoform (PIK3CD, Homo sapiens, UniProt O00329)
PIK3CD with p85 alpha: Phosphatidylinositol 4,5-bisphosphate 3-kinase catalytic subunit delta isoform, with p85 alpha (PIK3CD, Homo sapiens, UniProt O00329)

| SMILES | target | test | system | conditions | how to read | endpoint | result |
| --- | --- | --- | --- | --- | --- | --- | --- |
| CNC1C[S+]2CC[S+]3CC[S+](C1)[Ru-4]321([N]=C=S)[n]2c3ccc(OC)cc3c3c4c(c5cc(F)c[n+]1c5c32)C(=O)NC4=O (centres unmarked) | PIK3CD | KinomeScan |  | 0.1 µM | baseline: untreated | remaining binding | 88% |
| CNC(=O)C[C@H](Cc1ccc(C#N)cc1)NC(=O)c1cc(-c2ccc(CN[C@H](C)c3ccc(C)cc3)o2)ccc1Cl | PIK3CD with p85 alpha | enzyme activity, KinaseProfiler panel |  | 1 µM |  | remaining activity | 101% |
| C=CC(=O)N1Cc2nc(-c3cc(-c4cc(Cl)cnc4Cl)c(F)cc3F)n(-c3ccncn3)c2C1 | PIK3CD with p85 alpha | kinome panel |  | 1 µM |  | inhibition | 15.4% |
| CS(=O)(=O)Nc1cccc(-c2csc3cnc(Nc4ccc(N5CCN(CCCCCOc6cccc7c6C(=O)N(C6CCC(=O)NC6=O)C7=O)CC5)cc4)nc23)c1 (centres unmarked) | PIK3CD | probe labelling, inhibitor, KiNativ chemoproteomics | MOLT-4 | 1 µM |  | inhibition | -10.9% |
| Cc1nc2c(F)cc(-c3nc(Nc4ccc(CNC(=O)CCCCCCC(=O)NO)cc4)ncc3F)cc2n1C(C)C | Phosphatidylinositol 4,5-bisphosphate 3-kinase catalytic subunit delta isoform, with p85 (PIK3CD, Homo sapiens, UniProt O00329) | enzyme activity, inhibitor |  | 1 µM |  | inhibition | 47% |
| CC(=O)c1cnc(N)nc1N1CC[C@H]1c1nn2ccc(Cl)c2c(=O)n1-c1ccccc1 | PIK3CD | kinase occupancy, inhibitor, KiNativ ATP probe profiling | intact PBMC | 0.1 µM, 1 h |  | inhibition of probe binding | 77.2% |
| Cc1cnc2nc1Nc1cccc(c1)COC/C=C/COCc1cc(ccc1OCCN1CCOCC1)N2 | PIK3CD | binding |  | 0.1 µM |  | remaining binding | 69% |
| CN1CC[C@@H](COc2cnc(C#N)cc2-c2ccn3nc(NC(=O)C4CC4)cc3c2)C1 | PIK3CD with p85 alpha | inhibitor, KinaseProfiler panel |  | 1 µM |  | inhibition | 2% |
| COc1cc(Nc2nccc(-c3cnn4nc(OC)ccc34)n2)cc(C(F)(F)F)c1 | PIK3CD | binding, competition with immobilised ligand |  | 1 µM |  | remaining binding | 55% |
| C=CC(=O)Nc1cccc(-c2cnc3[nH]cc(C(=O)NC(C)(C)C)c3n2)c1 | PIK3CD | kinase activity |  | 0.1 µM |  | inhibition | 23% and 14% |
| C=CC(=O)N1CCCC(n2c(=O)c3ncccc3n(Cc3ccc(Oc4ccccc4)cc3)c2=O)C1 (centres unmarked) | PIK3CD | cell-free assay, competition with immobilised ligand |  | 1 µM |  | remaining binding | 100% |

For quick reference, copied from above:
| SMILES | target | test | system | conditions | how to read | endpoint | result |
| --- | --- | --- | --- | --- | --- | --- | --- |
| CNC1C[S+]2CC[S+]3CC[S+](C1)[Ru-4]321([N]=C=S)[n]2c3ccc(OC)cc3c3c4c(c5cc(F)c[n+]1c5c32)C(=O)NC4=O (centres unmarked) | PIK3CD | KinomeScan |  | 0.1 µM | baseline: untreated | remaining binding | 88% |
